Assay results gathered from unrelated publications.
“And” joins repeats or separate records; there may be more than shown. ± marks the error that the study gave.
DRD3: D(3) dopamine receptor (DRD3, Homo sapiens, UniProt P35462)
Sequence of UniProt P14618 (whole entry, looked up): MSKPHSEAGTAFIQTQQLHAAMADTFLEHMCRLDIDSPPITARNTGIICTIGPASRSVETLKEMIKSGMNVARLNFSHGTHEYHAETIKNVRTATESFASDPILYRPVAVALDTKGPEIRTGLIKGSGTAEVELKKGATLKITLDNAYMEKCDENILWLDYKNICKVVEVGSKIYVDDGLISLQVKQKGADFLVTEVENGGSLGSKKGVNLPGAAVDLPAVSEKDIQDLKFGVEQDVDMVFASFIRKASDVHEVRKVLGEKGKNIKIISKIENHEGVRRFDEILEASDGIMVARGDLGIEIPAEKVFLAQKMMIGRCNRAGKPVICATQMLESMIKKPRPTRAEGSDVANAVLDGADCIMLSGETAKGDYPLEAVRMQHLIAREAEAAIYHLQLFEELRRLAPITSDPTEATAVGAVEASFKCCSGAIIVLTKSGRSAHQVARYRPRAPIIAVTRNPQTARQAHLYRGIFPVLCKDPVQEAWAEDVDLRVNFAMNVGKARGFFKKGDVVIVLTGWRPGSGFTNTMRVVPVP
Sequence of UniProt P06276 (whole entry, looked up): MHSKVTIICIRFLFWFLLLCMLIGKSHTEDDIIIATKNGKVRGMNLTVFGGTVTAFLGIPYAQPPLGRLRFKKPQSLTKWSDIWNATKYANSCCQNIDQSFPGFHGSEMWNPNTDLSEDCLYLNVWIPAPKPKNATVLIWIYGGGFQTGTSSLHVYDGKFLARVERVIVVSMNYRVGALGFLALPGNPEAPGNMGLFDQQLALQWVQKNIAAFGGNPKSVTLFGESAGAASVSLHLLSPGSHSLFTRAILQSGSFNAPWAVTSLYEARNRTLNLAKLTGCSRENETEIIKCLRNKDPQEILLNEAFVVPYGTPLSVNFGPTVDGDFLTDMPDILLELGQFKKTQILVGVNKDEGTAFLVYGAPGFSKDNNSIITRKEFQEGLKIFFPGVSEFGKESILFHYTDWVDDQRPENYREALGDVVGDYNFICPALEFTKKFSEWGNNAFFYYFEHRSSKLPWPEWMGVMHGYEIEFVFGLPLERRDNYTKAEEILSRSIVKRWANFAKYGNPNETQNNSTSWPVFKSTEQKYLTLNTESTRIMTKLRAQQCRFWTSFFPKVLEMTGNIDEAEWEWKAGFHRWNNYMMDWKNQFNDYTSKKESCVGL
Sequence of UniProt Q007T0 (whole entry, looked up): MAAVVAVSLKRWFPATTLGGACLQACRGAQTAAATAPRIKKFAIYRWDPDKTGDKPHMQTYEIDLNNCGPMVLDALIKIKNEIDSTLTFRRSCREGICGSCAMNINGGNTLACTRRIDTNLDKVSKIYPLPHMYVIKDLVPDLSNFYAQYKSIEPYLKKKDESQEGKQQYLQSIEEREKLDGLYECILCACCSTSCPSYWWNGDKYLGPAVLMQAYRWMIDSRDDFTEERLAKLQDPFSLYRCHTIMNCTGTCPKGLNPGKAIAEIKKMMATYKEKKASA
Sequence of UniProt D0VWV4 (whole entry, looked up): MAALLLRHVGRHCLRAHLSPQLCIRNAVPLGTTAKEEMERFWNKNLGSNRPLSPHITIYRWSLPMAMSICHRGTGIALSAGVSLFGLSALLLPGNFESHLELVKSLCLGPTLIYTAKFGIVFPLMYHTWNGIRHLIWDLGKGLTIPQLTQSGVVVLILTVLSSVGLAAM
Sequence of UniProt A5GZW8 (whole entry, looked up): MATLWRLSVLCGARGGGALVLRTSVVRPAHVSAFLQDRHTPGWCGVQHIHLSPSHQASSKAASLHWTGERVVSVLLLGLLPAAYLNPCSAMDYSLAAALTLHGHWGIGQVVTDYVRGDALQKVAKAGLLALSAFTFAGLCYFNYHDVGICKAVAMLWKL
Sequence of UniProt Q05941 (whole entry, looked up): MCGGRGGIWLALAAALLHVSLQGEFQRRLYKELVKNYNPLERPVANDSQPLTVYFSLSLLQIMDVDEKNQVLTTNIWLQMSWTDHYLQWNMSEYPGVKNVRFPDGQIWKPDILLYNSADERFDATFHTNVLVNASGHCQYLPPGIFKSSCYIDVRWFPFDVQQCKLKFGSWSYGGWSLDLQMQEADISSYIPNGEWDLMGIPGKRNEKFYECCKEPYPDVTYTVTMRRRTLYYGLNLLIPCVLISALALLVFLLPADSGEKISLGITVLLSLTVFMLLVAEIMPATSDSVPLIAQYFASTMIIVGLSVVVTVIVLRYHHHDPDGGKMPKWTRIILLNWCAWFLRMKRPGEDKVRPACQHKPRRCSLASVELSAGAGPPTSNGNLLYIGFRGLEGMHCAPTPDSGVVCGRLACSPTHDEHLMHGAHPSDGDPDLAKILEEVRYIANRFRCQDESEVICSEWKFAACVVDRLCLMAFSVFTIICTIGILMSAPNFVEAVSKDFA
Sequence of UniProt P35462 (whole entry, looked up): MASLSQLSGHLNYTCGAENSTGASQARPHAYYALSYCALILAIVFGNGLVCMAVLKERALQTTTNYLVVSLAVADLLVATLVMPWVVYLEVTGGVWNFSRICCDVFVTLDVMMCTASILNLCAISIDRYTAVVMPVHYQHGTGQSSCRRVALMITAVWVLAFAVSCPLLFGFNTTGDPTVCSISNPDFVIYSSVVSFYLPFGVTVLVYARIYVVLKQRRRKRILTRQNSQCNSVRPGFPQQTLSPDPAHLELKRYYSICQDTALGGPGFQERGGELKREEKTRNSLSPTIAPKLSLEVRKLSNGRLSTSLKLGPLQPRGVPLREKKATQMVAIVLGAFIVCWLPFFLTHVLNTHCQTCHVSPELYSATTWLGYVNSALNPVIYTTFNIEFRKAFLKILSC
Sequence of UniProt P31749 (whole entry, unmodified, looked up): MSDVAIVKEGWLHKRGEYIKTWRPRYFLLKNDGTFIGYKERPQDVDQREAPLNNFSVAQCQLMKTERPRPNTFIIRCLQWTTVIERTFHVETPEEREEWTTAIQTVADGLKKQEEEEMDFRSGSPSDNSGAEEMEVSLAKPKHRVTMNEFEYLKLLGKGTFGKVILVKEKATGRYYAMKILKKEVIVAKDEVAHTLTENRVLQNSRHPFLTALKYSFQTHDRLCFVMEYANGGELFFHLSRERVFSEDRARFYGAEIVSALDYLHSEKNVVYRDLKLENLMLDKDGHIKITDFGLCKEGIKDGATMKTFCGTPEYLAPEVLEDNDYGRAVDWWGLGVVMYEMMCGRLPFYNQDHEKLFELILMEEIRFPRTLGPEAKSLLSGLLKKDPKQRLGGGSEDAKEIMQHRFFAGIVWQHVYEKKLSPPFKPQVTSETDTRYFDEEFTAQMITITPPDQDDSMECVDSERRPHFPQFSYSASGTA
Sequence of UniProt Q8TCC7 (whole entry, looked up): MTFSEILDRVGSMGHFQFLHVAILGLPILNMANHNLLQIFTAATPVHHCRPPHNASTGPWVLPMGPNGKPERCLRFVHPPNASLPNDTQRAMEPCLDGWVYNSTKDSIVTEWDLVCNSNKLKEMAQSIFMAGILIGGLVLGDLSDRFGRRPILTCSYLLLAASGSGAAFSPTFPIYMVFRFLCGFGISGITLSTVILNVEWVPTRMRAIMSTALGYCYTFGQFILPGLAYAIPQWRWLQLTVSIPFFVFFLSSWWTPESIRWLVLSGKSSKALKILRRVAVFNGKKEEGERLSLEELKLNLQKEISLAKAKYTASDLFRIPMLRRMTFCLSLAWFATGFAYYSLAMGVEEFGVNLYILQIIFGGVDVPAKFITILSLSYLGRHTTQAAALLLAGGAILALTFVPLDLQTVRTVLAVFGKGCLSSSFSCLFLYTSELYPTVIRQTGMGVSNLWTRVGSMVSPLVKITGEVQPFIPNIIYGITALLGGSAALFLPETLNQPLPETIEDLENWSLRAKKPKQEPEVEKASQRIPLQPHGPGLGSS
Sequence of UniProt Q5NUL3 (whole entry, looked up): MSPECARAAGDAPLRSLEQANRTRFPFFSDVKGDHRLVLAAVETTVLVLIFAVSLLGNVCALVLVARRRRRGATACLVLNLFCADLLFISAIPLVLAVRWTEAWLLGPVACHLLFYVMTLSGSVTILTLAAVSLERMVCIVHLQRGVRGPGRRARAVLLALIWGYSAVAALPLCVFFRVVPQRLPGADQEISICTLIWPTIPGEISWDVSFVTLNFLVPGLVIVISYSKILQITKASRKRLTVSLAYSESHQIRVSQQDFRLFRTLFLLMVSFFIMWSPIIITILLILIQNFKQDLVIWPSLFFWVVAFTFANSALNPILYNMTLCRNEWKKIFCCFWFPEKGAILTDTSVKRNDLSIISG
Sequence of UniProt Q5T6X5 (whole entry, looked up): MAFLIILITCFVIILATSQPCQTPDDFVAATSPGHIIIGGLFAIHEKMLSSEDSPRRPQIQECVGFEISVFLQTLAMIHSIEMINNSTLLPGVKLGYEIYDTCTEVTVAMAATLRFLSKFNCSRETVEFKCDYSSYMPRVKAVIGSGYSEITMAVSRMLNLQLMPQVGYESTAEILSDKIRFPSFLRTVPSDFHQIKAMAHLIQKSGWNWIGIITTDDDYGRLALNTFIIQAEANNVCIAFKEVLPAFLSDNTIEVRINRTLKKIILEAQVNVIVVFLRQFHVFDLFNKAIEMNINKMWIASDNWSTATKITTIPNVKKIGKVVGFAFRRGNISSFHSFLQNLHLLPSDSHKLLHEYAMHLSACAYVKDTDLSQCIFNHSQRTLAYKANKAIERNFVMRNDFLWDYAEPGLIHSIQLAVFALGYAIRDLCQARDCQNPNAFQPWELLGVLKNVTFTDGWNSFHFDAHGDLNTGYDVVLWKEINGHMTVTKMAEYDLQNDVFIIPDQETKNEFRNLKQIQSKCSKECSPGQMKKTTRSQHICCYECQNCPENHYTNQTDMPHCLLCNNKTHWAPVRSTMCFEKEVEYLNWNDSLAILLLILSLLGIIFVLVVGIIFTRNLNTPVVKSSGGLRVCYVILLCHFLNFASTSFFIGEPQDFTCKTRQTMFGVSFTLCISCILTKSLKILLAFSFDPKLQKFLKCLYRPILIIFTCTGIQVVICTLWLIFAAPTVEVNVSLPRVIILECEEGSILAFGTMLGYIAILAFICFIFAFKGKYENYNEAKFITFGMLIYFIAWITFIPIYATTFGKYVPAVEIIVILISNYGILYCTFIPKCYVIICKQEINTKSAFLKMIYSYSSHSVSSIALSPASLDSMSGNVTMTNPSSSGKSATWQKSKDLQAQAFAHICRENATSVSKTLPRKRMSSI

CN(C(=O)n1cnc(-c2ccc[n+]([O-])c2)c1)C1CCCCC1 has an inhibition of 11% (High affinity choline transporter 1 (Rattus norvegicus, UniProt Q9JMD7); radioligand binding; 50 µM, together with: [3H]hemicholinium-3).
O=C1NCN(c2ccccc2)C12CCN(CC1COc3ccccc3O1)CC2 (stereo not shown) gave an efficacy of -29.5 ± 8.15% (Cholinesterase (BCHE, Homo sapiens, UniProt P06276); concentration not given, Triton).
The remaining binding of [2H]c1c([2H])c([C@]2([2H])CCCN2C(=O)C(C)(C)Oc2ccc3cn[nH]c3c2)c([2H])c([2H])c1C([2H])([2H])[2H] is reported as 93% (CSNK2A2 (Homo sapiens, UniProt P19784); KINOMEscan; 1 µM; reference: DMSO control).
CN[C@@H]1C[C@H]2O[C@@](C)([C@@H]1OC)n1c3ccccc3c3c4c(c5c6ccccc6n2c5c31)C(=O)NC4 has a ΔTm of 0.4 °C (AKT1 (Homo sapiens, UniProt P31749); binder, differential scanning fluorimetry).
The maximal response of Oc1noc2c1CCNC2 is reported as 74% (GABA-A receptor; alpha-1/beta-2/gamma-2 (Rattus norvegicus, UniProt P18508+P62813+P63138); membrane potential, agonist, QP-DHM fluorescence; HEK293 expressing GABAA; reference: GABA).
The efficacy of CCCCNc1ccc(C(=O)OCCN(CC)CC)cc1 is reported as -108 ± 11% (Cholinesterase (BCHE, Homo sapiens, UniProt P06276); concentration not given, Triton).
For COc1ccc2[nH]c3c(c2c1)CCN(C)CC3.Cl, “recovery time constant” read 8.6 s (Chrna7 (Rattus norvegicus, UniProt Q05941); ion current, inhibitor, two-electrode voltage clamp; Xenopus laevis oocytes; 10 µM, rat receptor, together with: acetylcholine 100 µM).
With CN1CCN(c2cc(-c3ccncc3)c(-c3ccc4ccccc4c3)nn2)CC1 the activation was -0.1% (FFAR4 (Homo sapiens, UniProt Q5NUL3); agonist, FLIPR; 12.5 µM).
C[C@H]1CN(c2n[nH]c3nc(N[C@H]4CC[C@H](NS(=O)(=O)CCC(F)(F)F)CC4)ncc23)CCO1 gave a relative abundance of 1.06 (MDH2 (Homo sapiens, UniProt P40926); inhibitor, Kinobeads competition profiling; 0.16 µM; reference: vehicle).
NC(=Nc1ccccc1)NC(=O)c1nc(Cl)c(N)nc1N gave an IC50 of 7.94 µM (Plasmodium falciparum; HB3).
CC1(C)S[C@@H]2[C@H](/N=C/N3CCCCCC3)C(=O)N2[C@H]1C(=O)O gave a kinact/KI of 26 ± 1.8 M⁻¹ s⁻¹ (Penicillin-binding protein 2B (Streptococcus pneumoniae, UniProt P0A3M6); inhibitor).
For O=C1CN(C(=O)CCn2ccnc2)CC(O)CN1CCc1ccccc1 (stereo not shown), the apparent Vmax was 0.35 ± 0.01 µM/min (Cholinesterase (BCHE, Homo sapiens, UniProt P06276); inhibitor; 0.25 µM).
The peptide ratio of O=C(c1ccc(Cl)cc1)N1CCN2C(=O)N(OC(=O)N3CCOc4ccccc43)C(=O)C2C1 (stereo not shown) is reported as 1.44 and 1.32 and 1.51 and 1.33 (Pyruvate kinase PKM (PKM, Homo sapiens, UniProt P14618); MS-based ABPP; SW-620 conditioned medium; 10 µM, 1 h, 37 °C; reference: compound over DMSO, lower = more inhibition).
With C=C(CN(C(=O)c1c(C(F)F)nn(C)c1F)C1CC1)c1ccc(Cl)cc1Cl the reaction velocity was 0.0141 µM/s and 0.0135 µM/s and 0.0137 µM/s (SDHD/SDHC/SDHB (Sus scrofa, UniProt A5GZW8+D0VWV4+Q007T0); enzyme activity, inhibitor, DCIP reduction; pig; 0.06 µM, together with: DCIP 40 µM).
Under “binding entropy ΔS”, Nc1nc2c(ncn2[C@@H]2O[C@H](COP(=O)(O)OP(=O)(O)OP(=O)(O)O)[C@@H](O)[C@H]2O)c(=O)[nH]1 is recorded as 16.3 cal/mol/K (GTP 3',8-cyclase (moaA, Staphylococcus aureus, UniProt P69848, R17A); isothermal titration calorimetry; concentration not given, 25 °C, R17A mutant, anaerobic).
With N#C[Se]Cc1cc(=O)oc2cc(O)ccc12 the selectivity ratio was over 1070 (CA12 (Homo sapiens, UniProt O43570); stopped-flow CO2 hydration; reference: Ki CA II over Ki CA XII).
The inhibition of O=C(Nc1cnccc1Cl)N1CCN(Cc2ccc3c(c2)OC(F)(F)O3)CC1 is reported as -1% (glycine transporter, rat; binding; 50 µM, together with: [3H]glycine).
COc1cc2c3cc1Oc1cc(ccc1O)C[C@@H]1c4c(cc(OC)c(O)c4Oc4ccc(cc4)C[C@@H]3N(C)CC2)CC[N+]1(C)C — result for “free receptor reduction”: 70% (Chrnd/Chrna1/Chrne (Mus musculus, UniProt P02716+P04756+P20782); mouse diaphragm; 0.1 µM, AChE intact).
Cc1cccc(C)c1OCC(=O)N[C@@H](Cc1ccccc1)[C@H](O)C(=O)N1CSC(C)(C)[C@H]1C(=O)N[C@H]1c2ccccc2C[C@H]1O: “transition midpoint C1/2” 3.4 M (Gag-Pol polyprotein, protease (gag-pol, Human immunodeficiency virus type 1 group M subtype B, UniProt P04585); protein stability, GdnHCl denaturation, Trp fluorescence; HIV-1; 2.5 µM).
With C[C@H](CCC(=O)O)[C@H]1CC[C@H]2[C@@H]3CC[C@H]4C[C@@H](O)CC[C@]4(C)[C@H]3CC[C@]12C the delta Tm was about 5 °C (MerR family transcriptional regulator (Clostridioides difficile, UniProt Q181I6); differential scanning fluorimetry; 32 µM).
The selectivity ratio of CCN(C)C(=O)Oc1ccc(CCC(=O)N2CCC(Cc3ccccc3)CC2)cc1 is reported as 0.5 (Cholinesterase (BCHE, Equus caballus, UniProt P81908); Ellman; equine serum BuChE; reference: AChE IC50 over BuChE IC50).
For Cc1[nH]c(C)c(S(=O)(=O)Nc2ccc(S(F)(F)(F)(F)F)c(Cl)c2)c1C(=O)N1CCC(F)(F)C1, the Imax was 89 ± 1% (DRD3; β-arrestin recruitment, agonist, PathHunter; reference: dopamine).
The maximum activity of Clc1ccc(-c2cc(Cl)ccc2Cl)cc1 is reported as 23% (Androgen receptor (AR, Homo sapiens, UniProt P10275); reporter gene, antagonist; 40 µM, together with: DHT 2 nM; reference: DHT 2 nM).
For COc1cc(Nc2ncc(F)c(Nc3ccc4c(n3)NC(=O)C(C)(C)O4)n2)cc(OC)c1OC, the inhibition was 97% (RPS6KA1 (Homo sapiens, UniProt Q15418); KINOMEscan; 10 µM, RSK1(Kin.Dom.1-N-terminal)).
The association constant of Nc1ncnc2c1ncn2[C@@H]1O[C@H](COP(=O)(O)OP(=O)(O)O)[C@@H](O)[C@H]1O is reported as 2810 ± 292 M⁻¹ (Cell cycle histidine kinase CckA, R374A; cytoplasmic region (Caulobacter vibrioides, UniProt Q9X688, R374A); binding, ITC; together with: without c-di-GMP).
For O=C(O)C(F)(F)C(F)(F)C(F)(F)C(F)(F)C(F)(F)C(F)(F)C(F)(F)F, “linear uptake duration” read 2.5 min (SLC22A8 (Homo sapiens, UniProt Q8TCC7); substrate; HEK293 stably expressing; 10 µM).
With Nc1cnn(-c2ccccc2)c(=O)c1Cl the EC10 was 23 µM (PPARG (Homo sapiens, UniProt P37231); reporter gene, agonist, β-lactamase reporter; HEK293-H cells; 24 h, nominal concentration; reference: 10% of rosiglitazone maximum effect).
Under “log2 fold change”, COc1cc(N)c(Cl)cc1C(=O)NC1CN2CCC1CC2 (stereo not shown) is recorded as 0.221 (G-protein coupled receptor family C group 6 member A (GPRC6A, Homo sapiens, UniProt Q5T6X5); β-arrestin recruitment, TANGO luminescence, measured: GPRC6A; concentration not given; reference: basal luminescence).
For COc1ccc(N2C(=O)N(c3c(C)cccc3Cl)Cc3cnc(Nc4ccc(C5CCN(C)CC5)cc4OC)nc32)nc1, the inhibition was 97% (EPHA8 (Homo sapiens, UniProt P29322); kinase activity; 0.5 µM).
C[C@H]1c2cccc(O)c2C(=O)C2=C(O)[C@]3(O)C(=O)C(C(N)=O)=C(O)[C@@H](N(C)C)[C@@H]3[C@@H](O)[C@@H]21 has an IC50 of 5.01 µM (Plasmodium falciparum; HB3).
O=C(Nc1ccccc1)OCC(CN1CCCCC1)OC(=O)Nc1ccccc1 (stereo not shown) has an efficacy of -90.5 ± 5.68% (Cholinesterase (BCHE, Homo sapiens, UniProt P06276); concentration not given, Triton).
The kcat of Nc1ccn([C@H]2C[C@H](O)[C@@H](COP(=O)(O)OP(=O)(O)OP(=O)(O)O)O2)c(=O)n1 is reported as 6.92 ± 2.32 min⁻¹ (Gag-Pol polyprotein, reverse transcriptase (gag-pol, Human immunodeficiency virus type 1 group M subtype B, UniProt P04585, K653N); nucleotide misincorporation, steady-state kinetics; K66N RT, together with: matched template/primer, template T).
The remaining binding of COc1ncccc1-c1cnn2ccc(N3CCN(C(=O)OC(C)C)CC3)nc12 is reported as 100% (Tyrosine-protein kinase ABL1, phosphorylated (ABL1, Homo sapiens, UniProt P00519); KINOMEscan; 1 µM).
O=C(Nc1cccnn1)N1CCC(=Cc2cccc(Oc3ccc(C(F)(F)F)cn3)c2)CC1: “inhibition of binding” 23% (DRD3; radioligand binding; 10 µM, together with: [3H]spiperone).
CCCCCCCCCCCCc1ccc([C@H]2CC[C@H]([N+](C)(C)CCC)CC2)cc1.[I-] has a Ki/Km ratio of 1.3 (SPHK1 (Homo sapiens, UniProt Q9NYA1); inhibitor, radiometric flash-plate; cell lysate; together with: sphingosine 10 µM).
The KI of C=CCNCC(=O)O is reported as 933 ± 110 µM (putA (Sinorhizobium meliloti, UniProt F7X6I3); covalent inactivator; 23 °C).
Under “IC50 fold increase”, CN(N=O)c1ccc(O)c(O)c1 is recorded as 1.3 to 2.5 fold (TGM2 (Homo sapiens, UniProt P21980); transglutaminase activity, inhibitor; together with: 0.02% Triton X-100; reference: with over without Triton X-100).

For quick reference, copied from above:
The selectivity ratio of CCN(C)C(=O)Oc1ccc(CCC(=O)N2CCC(Cc3ccccc3)CC2)cc1 is reported as 0.5 (Cholinesterase (BCHE, Equus caballus, UniProt P81908); Ellman; equine serum BuChE; reference: AChE IC50 over BuChE IC50).
CC1(C)S[C@@H]2[C@H](/N=C/N3CCCCCC3)C(=O)N2[C@H]1C(=O)O gave a kinact/KI of 26 ± 1.8 M⁻¹ s⁻¹ (Penicillin-binding protein 2B (Streptococcus pneumoniae, UniProt P0A3M6); inhibitor).
The efficacy of CCCCNc1ccc(C(=O)OCCN(CC)CC)cc1 is reported as -108 ± 11% (Cholinesterase (BCHE, Homo sapiens, UniProt P06276); concentration not given, Triton).
